Results of several laboratories.
Parts stem from different laboratories: compare values within a part only. Positions count from the first letter of the parent shown.

Study 1 — method: RNA Bind-n-Seq; form: RNA; matrix: in vitro; concentration: 365 nM; relative to: no-protein control; direction: higher = stronger binding
Target: RNA binding protein fox-1 homolog 2, RRM domain, GST-SBP tag (RBFOX2, Homo sapiens, UniProt O43251-10, residues 100-194)
Notes: natural RNA segment, single round, ends assumed
All sequences stand within: GGGAGUUCUACAGUCCGACGAUC … UGGAAUUCUCGGGUGCCAA
Target sequence (chain): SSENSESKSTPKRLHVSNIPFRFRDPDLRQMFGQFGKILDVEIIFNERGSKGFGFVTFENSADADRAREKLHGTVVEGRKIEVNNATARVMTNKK
Strand	RBNS enrichment (R)
UAAAGCUGUUCCCUGGGGGAUGGCUUGGUAGUGGACUUUCUGGGGUUUGCCUGUUACGCCAGACUCGGACUUCUAAGCUUUAAGUGUGGCCCAGGAGGUUUCUUCUCCCU	4.09
CACGCUUUUUCUUUUUCUCUCUUUGGCAUUGUUCAUUUUGAGGUAGACCAUAGACUCUAGCCCAGGCUGAUCUGGAGCUUACUGUAUAGCCCAGGCUUUGAACUGGCCUU	0.277
GUUGAUUAGUACAAGUGCAAUUUCAAAAAGAUCUUGAAAGUAAUAUAUUUAAUCAAUUAAAAUGUUUCUCUGUAAGUCGUCGAUGUUUCUGUUAAUACAGUUUCCUGAAG	0.593
UGACAUGUUCACCCAUCUUCUCUGCUUCCCGCCACCAUCCAGAUCCUCAGCGGCCGCCCCGGCUGUGCCCUUCCCUGCUCUCCCGCUCUCUCAGGCCUCGGAAGGAAGAU	0.644
UUGGGCUCUUAGCUUAGUCUGUUGUUUCAUGCAAACACCGUUGUAACCAAAAGCUUCUGCACUUUGCUUCUGUUCUUCCUGUACAAGAAAUGCAAACGGCCACUGCAUUU	0.544
UCACUCAUUUGCUAAGCAUUGGGAACAUUCUGUGUAUUUACCUUAAACAUAAAUAAAUUCCUGAGAGUGUCCUAUAUUUGGAUUGUGAUUUGUAGACUCAUGCUAACUUU	0.378
CCAGUUGUAGUCGUUUGAGUGCAGUAAUGAAAUCUGAAUCUAAAAUAAAAACAAGAUUAUUUUUGUCAUGCUGACUCCACUGCUUGAAAAAUUUGUUUACUGCCCCCCAG	0.846
AAUUUGAUAGUUCUUGUCAAAUGAGAAAAUUUAAAGGUAAGAGUUAUGGUUUGUCUUAUGCUGCAUAGACUAUUCACCUCCUAACUUGAAGGUCUAAUCAUAAGACAAUU	0.437

Study 2 — method: protein-binding microarray; form: double-stranded DNA, one strand shown; matrix: in vitro; concentration: 2540 nM top; notes: 60-bp whole probe; together with: salmon DNA 0.4 mg/ml; relative to: random background probes; direction: higher = stronger binding; all sequences stand within: GCCTAGCAC … GTCTTGATTCGCTTGACGCTGCTG
Target: Interferon regulatory factor 3, full length, phosphomimetic (IRF3, Homo sapiens, UniProt Q14653, residues 1-427, S386D/S396D/S398D/S402D/T404D/S405D)
Construct (chain): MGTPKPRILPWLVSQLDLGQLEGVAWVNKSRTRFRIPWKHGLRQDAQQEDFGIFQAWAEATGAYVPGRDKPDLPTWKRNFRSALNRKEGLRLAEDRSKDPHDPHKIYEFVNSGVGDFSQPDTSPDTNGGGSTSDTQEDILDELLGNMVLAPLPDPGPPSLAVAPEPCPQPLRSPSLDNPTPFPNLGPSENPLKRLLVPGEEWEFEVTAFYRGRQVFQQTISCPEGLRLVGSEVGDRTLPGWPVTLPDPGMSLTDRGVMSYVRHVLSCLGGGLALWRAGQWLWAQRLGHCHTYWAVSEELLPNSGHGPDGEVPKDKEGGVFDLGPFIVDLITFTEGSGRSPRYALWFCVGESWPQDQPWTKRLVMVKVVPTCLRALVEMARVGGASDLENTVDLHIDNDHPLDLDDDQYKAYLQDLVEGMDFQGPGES
Strand	fitted relative affinity
GACGGAATGGGGTTTCGGGACGTGCTA	1.03 z-score
GAGGGTTTCCTTTTCCTGACGTGCTAG	9.85 z-score
TTAGGACTGGACTTTCGATTAGTGCTA	0.364 z-score
TCATTTTTTTTTTACTTACTGTGCTAG	1.44 z-score
GACGGTATCAGGTATCGGGACGTGCTA	2.21 z-score
GACGGGATCGGGTATCGGGACGTGCTA	0.226 z-score
TTAGGTCTGGACTATCGGTTAGTGCTA	-0.408 z-score
GACGTACTGCTACTGCTGACGTGCTAG	-0.401 z-score
TCAATTTTGTGTCTGGGACTGTGCTAG	0.0255 z-score
TTAGGACTGGACTTTTGGTTAGTGCTA	-0.601 z-score
GCCGGTCTCCTTCTCCTGACGTGCTAG	4.84 z-score
GCCGGACTGGACACTGGGGACGTGCTA	-0.187 z-score
TTAGGACTGCTTCTCCGTTAGTGCTAG	-0.246 z-score
TTAGGACTGCTGCTCCTTTAGTGCTAG	-0.442 z-score
TTAGGTTTCGGACTGGGTGAGTGCTAG	4.42 z-score
TCAGTTGTAGTTTTCATACTGTGCTAG	3.3 z-score

Study 3 — method: EMSA with sequencing; form: double-stranded DNA, one strand shown; matrix: in vitro; concentration: 10 and 20 nM; relative to: negative control set to 0; direction: higher = stronger binding
Target: Hepatocyte nuclear factor 3-alpha (Foxa1, Mus musculus, UniProt P35582, residues 1-468, full length assumed)
Notes: whole designed probe, mean of two concentrations, ends assumed
All sequences stand within: GTGAGCGGTGCCCATTGATGGGGAAC … TTTCACTGGGATCGTGGGGAC
Construct (chain): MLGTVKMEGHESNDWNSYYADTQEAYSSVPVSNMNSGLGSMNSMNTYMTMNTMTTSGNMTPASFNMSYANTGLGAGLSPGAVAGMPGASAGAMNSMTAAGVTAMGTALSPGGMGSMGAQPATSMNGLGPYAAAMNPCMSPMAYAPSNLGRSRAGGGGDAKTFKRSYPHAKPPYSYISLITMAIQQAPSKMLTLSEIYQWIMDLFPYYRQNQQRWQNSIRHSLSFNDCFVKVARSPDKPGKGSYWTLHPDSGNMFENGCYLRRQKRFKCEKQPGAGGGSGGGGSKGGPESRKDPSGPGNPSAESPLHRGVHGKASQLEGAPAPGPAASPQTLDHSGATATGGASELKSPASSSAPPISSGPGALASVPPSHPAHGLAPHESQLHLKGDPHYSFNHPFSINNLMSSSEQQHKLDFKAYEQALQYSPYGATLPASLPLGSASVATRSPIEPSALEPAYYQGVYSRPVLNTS
Strand	normalised bound fraction
ATCTTCCCCCTCTTCCTTGCCCCACCAGCTCACCTTCCCGGGTATATTGGAGATAGGAAATTAATATAAGCCGGCATTCGTTAACCCTCTTCTGGCGCAAACTGCCAGAGCAAACAGATGAATCATGGTCCTTTGGCGACGCCAGGCTCCGGGAGAGCAAAGCACCGTGTCAGGGCCATGATCCGGGGTGGCC	0.155 ratio
ATCTTCCCCCTCTTCCTTGCCCCACCAGCTCACCTACGGGGGTTATTTGCAGATAGGAAAATAAATAAAGCCGGCATTCGTTAACGCAGTTCTGGCGCAAACTGCTGTTTGCTCTGGATCTAACATGGTCCTTTGGCGACGCCAGGCTCCGGGAGAGCAAAGCACCGTGTCAGGGCCATGATCCGGGCTCGCC	0.344 ratio
ATATCAGGTTAAAAGAAACATTTCCTGGCAGATGCACAGCTCTGGAAAATTTTGTTTTCCAAACGTCTGGAAAACAAAAGGAAAGCTTCCTTTGTTTACATAGCCAAGAAGGTTGAGTGATGAGAATCAGAAAAGATTTTGAAGCAATACAAGATCTTCTCCTAGGGCCATTAGAGATCAGCTAATCTGTTCA	0.489 ratio
CATCTCGGCCTCCATAACTGCTGGGATTACAAGCATGAGCCACTATACCTGGCTGAAATTTTTTAACATACTAGTATTTGTGTAATTTAAAAAATAAACAGGCTGGGCACGGTGGCTCATGCCTGTAATCCCAGCACTTTGGGAGGCCGAGGCAGGTGGATCCTGAGGTCAAAAGATAGAGACCGTCCTGGCC	0.215 ratio
ATCTTCCCCCTCTTCCTTGCCCCACCAGCTCACCTACGGGGGTTATTTGCACAAAGGAAAATAAATAAAGCCGGCATTCGTTAACCCTCTTCACGCGCATACTGCTGTTTGCTCTGGATGAATCATGGTCCTTTGGCGAGGCGTGGCTCCGGGAGAGCAAAGCACCGTGTCAGGGCCATGATCCGGGGTGGCC	0.377 ratio

Study 4 — target: CCND3, cyclin fold, Cln2 fusion (human); method: yeast growth competition, sequencing; matrix: yeast; notes: weak parent motif; relative to: not given; direction: higher = stronger binding
Parent: ORC1 docking peptide (human); PRARKRLELGNLG; partner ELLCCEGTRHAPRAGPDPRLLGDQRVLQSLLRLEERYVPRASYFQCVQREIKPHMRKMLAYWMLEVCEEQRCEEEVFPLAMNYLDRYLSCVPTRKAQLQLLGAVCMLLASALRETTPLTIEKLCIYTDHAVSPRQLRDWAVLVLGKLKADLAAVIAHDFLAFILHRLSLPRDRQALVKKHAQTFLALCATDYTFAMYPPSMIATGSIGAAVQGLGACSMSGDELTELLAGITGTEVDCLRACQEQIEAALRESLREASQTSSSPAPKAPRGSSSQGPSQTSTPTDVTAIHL
Change	normalised enrichment score
PRGRKRLELGNLG [A3G]	0.0824
PRARKRLELGNLC [G13C]	0.168
PRARKRLELGNDG [L12D]	0.0824
PRARKRSELGNLG [L7S]	0.141
PRPRKRLELGNLG [A3P]	0.12
PRIRKRLELGNLG [A3I]	0.216
PRARKRLELGRLG [N11R]	0.154
PRARCRLELGNLG [K5C]	0.103
PRARKRLEHGNLG [L9H]	0.159
PLARKRLELGNLG [R2L]	0.0906
PRARKRLELGNLH [G13H]	0.119
PRARKRLQLGNLG [E8Q]	0.138
PRARKRLESGNLG [L9S]	0.198
PRARKRLELGNLV [G13V]	0.095
PRARKRLELGDLG [N11D]	0.0966
PRLRKRLELGNLG [A3L]	0.0941
PRNRKRLELGNLG [A3N]	0.225
PRARKRFELGNLG [L7F]	-0.0129
PFARKRLELGNLG [R2F]	0.104
PRARKRLLLGNLG [E8L]	0.133
PRAYKRLELGNLG [R4Y]	0.114
PRARLRLELGNLG [K5L]	0.152
LRARKRLELGNLG [P1L]	0.0748
PRARKRTELGNLG [L7T]	0.0702
PRARMRLELGNLG [K5M]	0.0387

Some of these lines once more (study 2):
Strand	fitted relative affinity
TCATTTTTTTTTTACTTACTGTGCTAG	1.44 z-score
GACGGAATGGGGTTTCGGGACGTGCTA	1.03 z-score
TCAATTTTGTGTCTGGGACTGTGCTAG	0.0255 z-score
GCCGGACTGGACACTGGGGACGTGCTA	-0.187 z-score
TTAGGACTGGACTTTCGATTAGTGCTA	0.364 z-score
GACGTACTGCTACTGCTGACGTGCTAG	-0.401 z-score
GACGGGATCGGGTATCGGGACGTGCTA	0.226 z-score
GACGGTATCAGGTATCGGGACGTGCTA	2.21 z-score
